{"data": "Earlier results as cited in several papers", "note": "Lines come from different studies, so protocols differ. ± marks the error that the study gave."}
{"SMILES": "CC[C@H](C)[C@H](NC(=O)[C@@H](NC(=O)[C@H](C)NC(=O)[C@@H](NC(=O)[C@H](C)NC(=O)[C@@H]1CCCN1C(=O)CNC(=O)[C@H](C)NC(=O)[C@H](CC(N)=O)NC(=O)[C@H](CCCCN)NC(=O)[C@@H](NC(=O)[C@H](C)NC(=O)[C@H](CC(N)=O)NC(=O)[C@H](CCCNC(=N)N)NC(=O)[C@@H](NC(=O)[C@H](CCCNC(=N)N)NC(=O)[C@H](CCCNC(=N)N)NC(=O)[C@@H](NC(=O)[C@@H](NC(=O)[C@H](CCCCN)NC(=O)[C@H](CCC(=O)O)NC(=O)[C@H](CC(C)C)NC(=O)[C@H](CCCCN)NC(=O)[C@H](CCCCN)NC(=O)[C@H](CC(C)C)NC(=O)[C@@H]1CCCN1C(=O)[C@H](CCCCN)NC(=O)[C@H](Cc1c[nH]c2ccccc12)NC(=O)[C@@H](N)CCCNC(=N)N)C(C)C)C(C)C)C(C)C)C(C)C)C(C)C)C(C)C)C(=O)NCC(=O)N[C@@H](CC(=O)O)C(=O)O", "tested on": "Staphylococcus aureus", "measurement": "MIC", "value": "16 µM"}
{"SMILES": "Nc1nc2sc(CCCCc3ccc(C(=O)N[C@@H](CCC(=O)O)C(=O)O)cc3)cc2c(=O)[nH]1", "tested on": "CHO PC43-10 (human RFC)", "test": "cell growth", "measurement": "IC50", "value": "> 1000 nM"}
{"SMILES": "CC(C)[C@H](NC(=O)[C@H](CCCNC(=N)N)NC(=O)[C@H](Cc1ccccc1)NC(=O)[C@H](CS)NC(=O)[C@@H](N)Cc1c[nH]c2ccccc12)C(=O)N[C@@H](CS)C(=O)N[C@@H](Cc1ccccc1)C(=O)N[C@@H](CCCCN)C(=O)NCC(=O)N[C@@H](Cc1ccccc1)C(=O)N[C@@H](CS)C(=O)N[C@@H](Cc1ccc(O)cc1)C(=O)N[C@@H](CCCNC(=N)N)C(=O)N[C@@H](Cc1ccccc1)C(=O)N[C@@H](CS)C(=O)O", "tested on": "Staphylococcus aureus", "measurement": "MIC", "value": "> 128 µM"}
{"SMILES": "CC(=O)OC1C(=O)C2(C)C(O)CC3OCC3(OC(C)=O)C2C(OC(=O)c2cccc(OC(F)(F)F)c2)C2(O)CC(OC(=O)C(O)C(C=C(C)C)NC(=O)OC(C)(C)C)C(C)=C1C2(C)C (stereo not drawn)", "tested on": "MCF7/PTX, paclitaxel-resistant", "test": "cell viability", "measurement": "IC50", "value": "19 ± 2.03 nM"}
{"SMILES": "Nc1nc2[nH]c(CCCCc3ccc(C(=O)N[C@@H](CCC(=O)O)C(=O)O)cc3)cc2c(=O)[nH]1", "tested on": "CHO PC43-10 (human RFC)", "test": "cell growth", "measurement": "IC50", "value": "> 1000 nM"}
{"SMILES": "CC(=O)OC12COC1CC(O)C1(C)C(=O)C(OC(=O)C3CC3)C3=C(C)C(OC(=O)C(O)C(C=C(C)C)NC(=O)OC(C)(C)C)CC(O)(C(OC(=O)c4cccc(OC(F)(F)F)c4)C21)C3(C)C (stereo not drawn)", "tested on": "MCF7/PTX, paclitaxel-resistant", "test": "cell viability", "measurement": "IC50", "value": "34.9 ± 2.97 nM"}
{"SMILES": "CC(=O)N[C@@H](CCCNC(=N)N)C(=O)N[C@H](C(=O)N[C@@H](CCCCN)C(=O)N[C@@H](CO)C(=O)N[C@@H](CCCNC(=N)N)C(=O)N[C@H](C(=O)N[C@@H](Cc1c[nH]c2ccccc12)C(=O)N[C@@H](C)C(=O)NCC(=O)N[C@@H](CCC(=O)O)C(=O)N[C@@H](CCCCN)C(=O)N[C@@H](CO)C(=O)N[C@@H](CCCCN)C(=O)N[C@@H](CCCNC(=N)N)C(N)=O)[C@@H](C)OP(=O)(O)O)[C@@H](C)O", "tested on": "cSCC cells", "test": "cell death", "measurement": "IC50", "value": "22100 nM"}
{"SMILES": "CC(C)NCCCn1c(Sc2cc3c(cc2I)OCO3)nc2c(N)ncnc21", "tested on": "cancer cell lines", "test": "cell growth", "conditions": "approximate value", "measurement": "IC50", "value": "150 to 300 nM"}
{"SMILES": "NCCCNC(=O)c1cn(CCCc2ccccc2)c2cc(Cl)ccc2c1=O", "tested on": "HepG2", "test": "cell growth", "measurement": "IC50", "value": "≤ 1000 nM"}
{"SMILES": "CCCN(C)c1cc(C(F)(F)F)nc(SCCC(=O)NCc2ccco2)n1", "tested on": "SNU-C5", "test": "inhibitor", "conditions": "concentration not given, added: EPEC-1 infection", "measurement": "cell death", "value": "inhibited"}
{"SMILES": "CCN(CC)C(C)CNC(=O)c1cn(Cc2ccccc2)c2cc(Cl)ccc2c1=O (stereo not drawn)", "tested on": "several cancer cell lines", "conditions": "range over cell lines", "measurement": "IC50", "value": "4430 to 19500 nM"}
{"SMILES": "C[C@@H]1NC(=O)[C@H](CCCNC(=N)N)NC(=O)[C@H](Cc2ccc3ccccc3c2)NC(=O)[C@H]2CCCCN2C(=O)[C@@H]([C@H](C)OP(=O)(O)O)NC(=O)CN(C)C(=O)[C@@H](C)NC(=O)c2cc3cc(c2)C(=O)NC[C@H](NC(=O)[C@@H](C)NC1=O)C(=O)N[C@@H](Cc1ccccc1)C(=O)N[C@@H](Cc1ccc2ccccc2c1)C(=O)N[C@@H](CCCNC(=N)N)C(=O)N[C@@H](CCCNC(=N)N)C(=O)N[C@@H](CCCNC(=N)N)C(=O)N[C@@H](CCCNC(=N)N)C(=O)N[C@H](C(=O)N[C@@H](CCCCN)C(N)=O)CNC3=O", "tested on": "HeLa", "test": "cell growth", "measurement": "IC50", "value": "1800 nM"}
